# Published values collected from several papers.
# Values joined by “and” are separate records of one study, mostly repeats; a detail may differ. ± marks the error that the study gave.
# TMEM97: Sigma intracellular receptor 2 (TMEM97, Homo sapiens, UniProt Q5BJF2)
# Sequence of UniProt Q5BJF2 (whole entry, looked up): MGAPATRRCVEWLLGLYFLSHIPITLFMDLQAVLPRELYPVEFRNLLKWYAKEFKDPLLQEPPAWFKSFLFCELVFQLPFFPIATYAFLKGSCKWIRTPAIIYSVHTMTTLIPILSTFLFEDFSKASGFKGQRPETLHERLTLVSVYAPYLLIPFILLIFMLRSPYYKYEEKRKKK
# uncharacterized protein: uncharacterized protein (Bradysia odoriphaga, UniProt A0A2S0X9G4)
# Alpha-1-acid glycoprotein 2: Alpha-1-acid glycoprotein 2 (Homo sapiens, UniProt P19652)
# Sequence of UniProt P19652 (whole entry, looked up): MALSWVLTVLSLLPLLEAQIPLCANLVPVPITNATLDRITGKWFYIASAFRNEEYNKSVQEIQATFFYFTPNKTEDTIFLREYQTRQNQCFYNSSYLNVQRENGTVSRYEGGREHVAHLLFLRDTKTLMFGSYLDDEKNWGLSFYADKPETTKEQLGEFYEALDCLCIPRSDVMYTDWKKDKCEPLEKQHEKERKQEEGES
# MAPT PSP brain aggregates: Microtubule-associated protein tau, PSP brain aggregates (MAPT, Homo sapiens, UniProt P10636)
# Sequence of UniProt P10636 (whole entry, looked up): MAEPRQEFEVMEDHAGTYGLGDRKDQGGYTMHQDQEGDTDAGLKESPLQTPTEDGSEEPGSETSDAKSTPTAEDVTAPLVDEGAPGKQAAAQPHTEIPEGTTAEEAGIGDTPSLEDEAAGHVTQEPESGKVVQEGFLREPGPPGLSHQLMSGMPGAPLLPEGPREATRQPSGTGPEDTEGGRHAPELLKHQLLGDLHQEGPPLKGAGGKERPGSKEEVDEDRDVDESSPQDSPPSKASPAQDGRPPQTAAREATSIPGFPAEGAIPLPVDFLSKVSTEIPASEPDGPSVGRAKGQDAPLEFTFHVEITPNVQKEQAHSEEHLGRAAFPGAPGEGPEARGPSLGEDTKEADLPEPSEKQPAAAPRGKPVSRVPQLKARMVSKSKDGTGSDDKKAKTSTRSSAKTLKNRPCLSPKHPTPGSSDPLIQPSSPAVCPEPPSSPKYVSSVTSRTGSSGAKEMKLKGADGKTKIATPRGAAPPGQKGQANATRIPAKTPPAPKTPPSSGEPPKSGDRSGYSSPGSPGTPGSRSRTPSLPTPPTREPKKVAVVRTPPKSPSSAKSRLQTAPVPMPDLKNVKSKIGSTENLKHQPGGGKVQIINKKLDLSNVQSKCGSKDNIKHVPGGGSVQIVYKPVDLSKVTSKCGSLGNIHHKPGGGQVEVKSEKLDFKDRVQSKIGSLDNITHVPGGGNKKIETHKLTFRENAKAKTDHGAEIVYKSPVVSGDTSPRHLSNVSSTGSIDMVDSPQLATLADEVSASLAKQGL
# Sequence of UniProt Q60492 (whole entry, looked up): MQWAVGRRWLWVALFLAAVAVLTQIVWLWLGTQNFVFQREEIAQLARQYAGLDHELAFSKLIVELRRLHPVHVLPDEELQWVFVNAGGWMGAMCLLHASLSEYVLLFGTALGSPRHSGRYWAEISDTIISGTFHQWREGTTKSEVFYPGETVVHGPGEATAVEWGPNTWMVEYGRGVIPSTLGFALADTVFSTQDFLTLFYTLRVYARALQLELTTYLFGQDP
# Sequence of UniProt P0AG16 (whole entry, looked up): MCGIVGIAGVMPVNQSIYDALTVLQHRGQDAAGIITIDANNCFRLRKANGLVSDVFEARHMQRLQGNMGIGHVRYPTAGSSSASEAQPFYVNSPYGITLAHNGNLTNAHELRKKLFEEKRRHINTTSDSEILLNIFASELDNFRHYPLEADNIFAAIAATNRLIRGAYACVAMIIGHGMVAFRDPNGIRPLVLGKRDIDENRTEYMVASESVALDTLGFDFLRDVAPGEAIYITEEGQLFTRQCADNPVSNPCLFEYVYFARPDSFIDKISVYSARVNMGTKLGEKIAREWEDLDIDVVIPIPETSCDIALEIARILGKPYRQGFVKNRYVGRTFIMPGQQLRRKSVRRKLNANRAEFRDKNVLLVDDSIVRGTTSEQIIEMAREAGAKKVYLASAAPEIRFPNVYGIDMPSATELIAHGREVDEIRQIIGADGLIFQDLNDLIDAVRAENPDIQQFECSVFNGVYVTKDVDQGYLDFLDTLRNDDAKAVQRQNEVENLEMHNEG
# Sequence of UniProt P52790 (whole entry, looked up): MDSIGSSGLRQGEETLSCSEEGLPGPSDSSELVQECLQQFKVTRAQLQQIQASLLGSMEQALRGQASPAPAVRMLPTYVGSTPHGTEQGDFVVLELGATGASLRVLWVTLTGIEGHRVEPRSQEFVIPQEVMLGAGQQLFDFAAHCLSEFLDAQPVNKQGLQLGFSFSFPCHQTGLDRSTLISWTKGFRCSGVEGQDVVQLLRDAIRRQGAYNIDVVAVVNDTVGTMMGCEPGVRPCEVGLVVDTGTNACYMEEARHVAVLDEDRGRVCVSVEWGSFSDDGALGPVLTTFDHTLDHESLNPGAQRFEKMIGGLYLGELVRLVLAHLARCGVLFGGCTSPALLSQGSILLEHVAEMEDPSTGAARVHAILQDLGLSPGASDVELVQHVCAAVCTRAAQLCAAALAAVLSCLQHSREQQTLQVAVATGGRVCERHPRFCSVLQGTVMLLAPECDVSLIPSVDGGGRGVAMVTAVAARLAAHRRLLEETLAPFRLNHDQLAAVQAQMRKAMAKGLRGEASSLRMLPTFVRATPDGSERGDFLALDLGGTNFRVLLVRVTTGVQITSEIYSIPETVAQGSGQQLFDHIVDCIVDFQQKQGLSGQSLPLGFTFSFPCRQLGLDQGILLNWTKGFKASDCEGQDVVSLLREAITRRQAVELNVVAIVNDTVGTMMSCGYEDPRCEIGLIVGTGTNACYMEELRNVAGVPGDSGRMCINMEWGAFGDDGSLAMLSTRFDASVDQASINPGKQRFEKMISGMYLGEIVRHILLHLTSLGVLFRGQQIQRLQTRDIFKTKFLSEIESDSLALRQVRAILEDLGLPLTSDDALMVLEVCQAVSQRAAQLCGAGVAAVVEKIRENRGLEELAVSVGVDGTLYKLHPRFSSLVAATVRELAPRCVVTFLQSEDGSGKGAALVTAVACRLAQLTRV
# Sequence of UniProt P15823 (whole entry, looked up): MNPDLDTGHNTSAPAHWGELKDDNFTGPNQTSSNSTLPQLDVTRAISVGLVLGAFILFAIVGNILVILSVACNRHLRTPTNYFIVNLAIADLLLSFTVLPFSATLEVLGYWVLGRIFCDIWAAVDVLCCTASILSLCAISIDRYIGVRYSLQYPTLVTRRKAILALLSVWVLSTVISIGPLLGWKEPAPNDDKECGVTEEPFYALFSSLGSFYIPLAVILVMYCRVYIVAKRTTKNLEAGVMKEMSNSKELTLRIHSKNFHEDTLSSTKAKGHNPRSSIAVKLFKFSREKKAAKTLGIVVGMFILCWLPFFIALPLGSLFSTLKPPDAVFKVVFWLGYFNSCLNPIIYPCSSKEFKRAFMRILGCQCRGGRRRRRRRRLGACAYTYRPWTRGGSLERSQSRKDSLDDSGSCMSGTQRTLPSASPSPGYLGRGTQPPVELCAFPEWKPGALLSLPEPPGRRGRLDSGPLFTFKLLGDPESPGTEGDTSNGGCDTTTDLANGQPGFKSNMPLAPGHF
# Sequence of UniProt O60658 (whole entry, looked up): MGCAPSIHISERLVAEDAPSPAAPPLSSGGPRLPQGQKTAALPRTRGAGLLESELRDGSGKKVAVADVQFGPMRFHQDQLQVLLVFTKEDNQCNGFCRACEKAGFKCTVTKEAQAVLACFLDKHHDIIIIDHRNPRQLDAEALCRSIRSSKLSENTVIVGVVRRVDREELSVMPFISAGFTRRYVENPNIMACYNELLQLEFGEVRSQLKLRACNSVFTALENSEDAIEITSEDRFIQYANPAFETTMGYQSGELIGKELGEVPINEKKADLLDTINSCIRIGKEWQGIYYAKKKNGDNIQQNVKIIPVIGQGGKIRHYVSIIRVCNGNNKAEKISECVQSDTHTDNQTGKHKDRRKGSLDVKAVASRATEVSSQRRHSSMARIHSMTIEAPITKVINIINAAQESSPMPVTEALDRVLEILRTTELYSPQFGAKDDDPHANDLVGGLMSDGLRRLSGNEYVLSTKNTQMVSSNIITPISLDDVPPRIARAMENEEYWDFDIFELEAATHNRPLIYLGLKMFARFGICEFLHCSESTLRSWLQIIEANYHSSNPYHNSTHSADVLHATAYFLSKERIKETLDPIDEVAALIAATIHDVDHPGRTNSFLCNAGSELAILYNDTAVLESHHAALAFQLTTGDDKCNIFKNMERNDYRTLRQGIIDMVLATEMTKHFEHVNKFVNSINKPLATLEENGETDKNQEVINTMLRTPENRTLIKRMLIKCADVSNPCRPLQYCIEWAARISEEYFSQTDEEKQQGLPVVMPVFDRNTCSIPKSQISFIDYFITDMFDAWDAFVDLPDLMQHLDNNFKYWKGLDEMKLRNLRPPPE
# Sequence of UniProt P00388 (whole entry, unmodified, looked up): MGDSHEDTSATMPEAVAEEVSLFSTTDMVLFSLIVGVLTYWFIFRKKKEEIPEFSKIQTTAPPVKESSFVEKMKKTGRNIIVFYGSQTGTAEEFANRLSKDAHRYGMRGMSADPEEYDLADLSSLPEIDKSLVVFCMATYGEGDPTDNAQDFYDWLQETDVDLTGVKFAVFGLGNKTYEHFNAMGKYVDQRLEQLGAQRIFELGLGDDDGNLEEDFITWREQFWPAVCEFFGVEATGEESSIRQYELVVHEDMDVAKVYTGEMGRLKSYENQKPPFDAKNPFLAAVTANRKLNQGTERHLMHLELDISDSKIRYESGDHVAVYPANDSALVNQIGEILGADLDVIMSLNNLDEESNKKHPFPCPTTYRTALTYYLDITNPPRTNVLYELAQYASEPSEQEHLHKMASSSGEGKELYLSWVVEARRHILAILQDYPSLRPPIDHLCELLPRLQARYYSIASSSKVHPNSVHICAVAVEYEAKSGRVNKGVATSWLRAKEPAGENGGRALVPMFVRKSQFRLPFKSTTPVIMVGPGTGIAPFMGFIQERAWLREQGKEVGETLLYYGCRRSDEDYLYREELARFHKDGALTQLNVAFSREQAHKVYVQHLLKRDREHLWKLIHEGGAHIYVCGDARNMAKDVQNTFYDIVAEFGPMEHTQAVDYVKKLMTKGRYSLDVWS
SMILES,target,test,test system,conditions,Ki
OC[C@H]1OC(O)[C@H](O)[C@@H](O)[C@@H]1O (stereo partly drawn),"Hexokinase-3 (HK3, Homo sapiens, UniProt P52790)",substrate inhibition,,"with: ATP 100 mM, super-saturating",15000 ± 1000 µM
O=C(CN(CCCCI)CCCN1CCN(C2CCCCC2)CC1)Nc1ccc(C(=O)c2ccccc2)cc1,TMEM97,radioligand binding,RT-4 cell membranes,"with: 10 nM [3H]-DTG, 100 nM (+)-pentazocine",0.0447 µM
CCCCCCCCCCCC,uncharacterized protein,"binding, competitive fluorescence displacement",,,> 50 µM
COC(=O)C1=C(C)NC(C)=C(C(=O)OCCN(C)Cc2ccccc2)C1c1cccc([N+](=O)[O-])c1 (stereo not drawn),Alpha-1-acid glycoprotein 2,"competitive inhibitor, ultrafiltration",,"15 min, 37 °C, with: [3H]S-disopyramide",13.9 µM
Fc1ccc(-c2ccc3c(n2)[nH]c2ccncc23)s1,MAPT PSP brain aggregates,binding,PSP human brain tissue,with: [3H]PI-2620,< 0.01 µM and 0.0082 µM
CCCCC(C)=O,uncharacterized protein,"binding, competitive fluorescence displacement",,,> 50 µM
COc1ccc(CCC(C)N2CCc3cc(OC)c(OC)cc3C2)cc1 (stereo not drawn),"SIGMAR1 (Cavia porcellus, UniProt Q60492)","binding, [3H](+)-pentazocine displacement",guinea pig brain homogenate,,0.0484 ± 0.0077 µM
CC(=O)[C@H]1CC[C@H]2[C@@H]3CCC4=CC(=O)CC[C@]4(C)[C@H]3CC[C@]12C,Alpha-1-acid glycoprotein 2,"competitive inhibitor, ultrafiltration",,"15 min, 37 °C, with: [3H]S-disopyramide",58.3 µM
CNc1ccc(/C=C/C=C/c2nc3ccc(OCC(O)CF)cc3s2)cn1 (stereo not drawn),"Microtubule-associated protein tau, AD brain aggregates (MAPT, Homo sapiens, UniProt P10636)",,Alzheimer's disease brain homogenate,with: [3H]asyn-44,> 10 µM
O=C(c1ccc(CNCCCN2CCN(C3CCCCC3)CC2)cc1)c1ccc([N+](=O)[O-])cc1,TMEM97,radioligand binding,RT-4 cell membranes,"with: 10 nM [3H]-DTG, 100 nM (+)-pentazocine",0.0333 µM
CC(=O)c1ccccc1,uncharacterized protein,"binding, competitive fluorescence displacement",,,> 50 µM
Fc1ncccc1-c1ccc2c(n1)[nH]c1ccncc12,MAPT PSP brain aggregates,binding,PSP human brain tissue,with: [3H]PI-2620,0.0062 µM
COc1ccccc1OCCNCC(O)COc1cccc2[nH]c3ccccc3c12 (stereo not drawn),Alpha-1-acid glycoprotein 2,"competitive inhibitor, ultrafiltration",,"15 min, 37 °C, with: [3H]S-disopyramide",25 µM
CN[C@@H]1CN2[C@@H](Cc3ccc(OC)cc3)[C@@H](O)[C@H]3C[C@@]2(CC[C@@H]3OP(=O)(O)O)C1,"Amidophosphoribosyltransferase (purF, Escherichia coli, UniProt P0AG16)",enzyme activity,,with: glutamine and PRPP,0.0601 ± 0.0004 µM
Cc1ccc2oc(=O)cc(NCCO)c2c1,"Adra1b (Rattus norvegicus, UniProt P15823)",,,,63.1 µM
NC(=O)c1ccc[n+]([C@@H]2O[C@H](COP(=O)(O)OP(=O)(O)OC[C@H]3O[C@@H](n4cnc5c(N)ncnc54)[C@H](OP(=O)(O)O)[C@@H]3O)[C@@H](O)[C@H]2O)c1,"NADPH--cytochrome P450 reductase (Rattus norvegicus, UniProt P00388, W677G)","cytochrome c reduction, inhibitor",,with: NADPH,3.75 ± 0.37 µM
CCCCCCCC=O,uncharacterized protein,"binding, competitive fluorescence displacement",,,> 50 µM
OCCCN1CC[C@@H]2C[C@H]1c1cc(-c3ccc(C(F)(F)F)cc3)ccc12,"benzodiazepine site, rat brain",binding,,,6.59 µM
CCCCCCC=O,uncharacterized protein,"binding, competitive fluorescence displacement",,,> 50 µM
COc1ccc(Cl)cc1C(=O)NCCc1ccc(S(=O)(=O)NC(=O)NC2CCCCC2)cc1,Alpha-1-acid glycoprotein 2,"competitive inhibitor, ultrafiltration",,"15 min, 37 °C, with: [3H]S-disopyramide",40 µM
CCCCC=O,uncharacterized protein,"binding, competitive fluorescence displacement",,,> 50 µM
Cc1ccc([C@H]2C[C@@H]2COc2cc(NCc3nnc(C)s3)nc(C)n2)nc1,"PDE8A (Homo sapiens, UniProt O60658)","enzyme activity, inhibitor, IMAP fluorescence polarization",,"isoform PDE8A1, with: cAMP substrate",> 50 µM
C=CC(C)(O)CCC=C(C)C (stereo not drawn),uncharacterized protein,"binding, competitive fluorescence displacement",,,> 50 µM
O=c1n(CCCN2CCN(c3cccc(Cl)c3)CC2)nc2ccccn12,TMEM97,,,,> 10 µM

# Excerpt of the above:
SMILES,target,test,test system,conditions,Ki
OCCCN1CC[C@@H]2C[C@H]1c1cc(-c3ccc(C(F)(F)F)cc3)ccc12,"benzodiazepine site, rat brain",binding,,,6.59 µM
CC(=O)c1ccccc1,uncharacterized protein,"binding, competitive fluorescence displacement",,,> 50 µM
